Measurements from different studies.
Protocols differ between the studies behind these lines.

`CC[C@@]1(O)C(=O)OCc2c1cc1n(c2=O)Cc2cc3cc(OC(=O)CCCC(=O)NCC(=O)N[C@@H](Cc4ccccc4)C(=O)N[C@@H](Cc4ccccc4)C(=O)N[C@@H](Cc4ccc(OP(=O)(O)O)cc4)C(=O)NCCSSCCNC(=O)CCC(=O)N[C@@H](CCC(=O)O)C(=O)N[C@@H](CCCNC(=N)N)C(=O)NCC(=O)N[C@@H](CC(=O)O)C(=O)O)ccc3nc2-1` — result for cellular uptake: “inhibited” (HepG2; confocal microscopy; 100 µM, 2 h, together with: chlorpromazine 30 µM).
The viability of `CC[C@@]1(OC(=O)CCC(=O)NCCCC[C@H](NC(=O)[C@H](Cc2ccccc2)NC(=O)[C@H](Cc2ccccc2)NC(=O)CCSC2=C(/C=C/C3=[N+](C)c4ccccc4C3(C)C)CCC/C2=C\C=C2\N(C)c3ccccc3C2(C)C)C(=O)N[C@@H](CCCCNC(=O)CCCC[C@@H]2SC[C@@H]3NC(=O)N[C@@H]32)C(=O)O)C(=O)OCc2c1cc1n(c2=O)Cc2cc3ccccc3nc2-1` is reported as 32.5% (4T1; CCK-8; 5 µM, 4 h then 24 h, together with: 808 nm laser 1 W/cm2 5 min; baseline: untreated).
For `CCCc1cc(OC)c2c(c1OC)OCO2`, the GI50 was over 250 µM (HCT-116; cell growth or viability; 72 h).
Under “PGC-1α mRNA level”, `COC(=O)[C@H](CC(C)C)NC(=O)[C@@H]1CCCN1C(=O)[C@@H](NC(=O)[C@H](CCC(=O)C=[N+]=[N-])NC(=O)OCc1ccccc1)C(C)C` is recorded as “increased” (Huntington's disease patient myoblasts; 50 µM, 2 h).
`N=C(N)Nc1ccc(-c2nc3ccc(-c4ccc5nc(-c6ccc(NC(=N)N)cc6)[nH]c5c4)cc3[nH]2)cc1` — result for “MBNL1 exon 5 splicing”: “no effect” (wild-type corneal endothelial cells; concentration not given).
`Cc1ccc(NCCN(C)CCNc2ccnc3cc(Cl)ccc23)c2c(=O)c3ccccc3sc12` — result for “LC3B spot count increase”: 80% (Vero E6; autophagy; concentration not given, 16 h; baseline: chloroquine).
Under “pathway activation z-score”, `COC1CC(=O)N(C)C=CCCCC(=O)N(C)C(C(C)C)C(=O)N(C)C(CC(C)C)C(=O)OC(C(C)C)CC(C)C1` (stereo not drawn) is recorded as 2 (HCT-116; RNA sequencing, refers to: integrin signalling; 20 µM, 12 h; direction not given).
`F[P-](F)(F)(F)(F)F.F[P-](F)(F)(F)(F)F.[Ru+2].c1ccc(-c2ccccn2)nc1.c1ccc(-c2ccccn2)nc1.c1csc(-c2ccc(-c3ccc(-c4cc5cccnc5c5ncccc45)s3)s2)c1` has a phototherapeutic index of 800 (HL-60; cell viability; visible light; baseline: dark EC50 over light EC50).
With `CC(C)[C@H](NC(=O)c1ccc(CCc2nc3c(c(=O)[nH]2)CCC3)cc1)C(=O)NC1CNC1` the osteoclast differentiation was 79% (mouse osteoclast precursors; 10 µM, 5 to 7 d, together with: M-CSF and RANKL; baseline: control).
The CC50 of `CC/C=C\C/C=C\C/C=C\C/C=C\C/C=C\C/C=C\CCC(=O)Nc1ccn(C2OC(CO)C(O)C2(F)F)c(=O)n1` (stereo not drawn) is reported as 46.9 µM (NCI/ADR-RES; NCI-60 screen).
`C[C@H]1C(OCCCCCCCC[P+](c2ccccc2)(c2ccccc2)c2ccccc2)O[C@@H]2O[C@@]3(C)CCC4[C@H](C)CCC1[C@]42OO3` (stereo partly drawn) — result for protein level: “decreased” (J82 and T24; western blot, refers to: cyclin D1; concentration not given, 48 h).
`CC[C@H]1OC(=O)[C@H](C(C)C)NC(=O)[C@H](C)OC(=O)[C@@H](C(C)C)NC(=O)[C@@H](C(C)C)OC(=O)[C@H](C(C)C)NC(=O)[C@H](C)OC(=O)[C@@H](C(C)C)NC(=O)[C@@H](C(C)C)OC(=O)[C@H](C(C)C)NC(=O)[C@H](C)OC(=O)[C@@H](C(C)C)NC1=O`: “G0/G1 phase cells” 62.4% (U-251; PI staining flow cytometry; 0.8 µM, 12 h).
`CC[C@H](C)[C@H](NC(=O)CNC(=O)[C@H](CC(C)C)NC(=O)CNC(=O)[C@H](CCCCN)NC(=O)[C@H](CCC(=O)O)NC(=O)[C@H](CCCCN)NC(=O)[C@@H](NC(=O)[C@H](Cc1ccccc1)NC(=O)[C@H](CC(=O)O)NC(=O)[C@H](CCCCN)NC(=O)[C@H](C)NC(=O)[C@H](CCCCN)NC(=O)[C@H](CC(N)=O)NC(=O)[C@H](CC(C)C)NC(=O)[C@H](Cc1c[nH]c2ccccc12)NC(=O)[C@H](CC(=O)O)NC(=O)[C@H](CCCCN)NC(=O)[C@@H](NC(=O)CNC(=O)[C@H](C)N)[C@@H](C)O)[C@@H](C)CC)C(=O)N[C@@H](CC(C)C)C(=O)N[C@@H](CO)C(=O)N[C@@H](C)C(=O)N[C@@H](C)C(=O)N[C@@H](C)C(=O)N[C@@H](CC(N)=O)C(=O)N[C@@H](C)C(=O)N[C@@H](C)C(=O)N[C@H](C(=O)N[C@@H](CC(N)=O)C(=O)O)[C@@H](C)CC`: “intracellular calcium increase” “inactive” (mouse DRG neurons; 10 µM, 90 s).
`CCCCCCCC(=O)SCC/C=C/[C@@H]1CC(=O)NCc2cccc(n2)C2=N[C@@](C)(CS2)C(=O)N[C@@H](C(C)C)C(=O)O1` gave an effective concentration of over 10 nM (SW-620; sub-G1 accumulation, propidium iodide flow cytometry; 24 h).
`CC(=O)O[C@@H]1[C@H](OC(C)=O)[C@@H](C)O[C@H]1n1cc(F)c(NC(=O)/C=C/c2ccc(O)c(O)c2)nc1=O` gave a selectivity index of 1.23 (ASPC1; cell viability, MTT; baseline: NHDF fibroblasts over ASPC1).
Under “total cell count”, `CCN(CC)CCOc1ccc(-c2nnn(Cc3ccc(OC)cc3)c2N)cc1` is recorded as “no effect” (primary human vestibular schwannoma; 5 µM, 7 days).
`O=C1/C(=C/c2ccc3c(c2)OCCO3)SC(=S)N1[C@@H]1O[C@H](CO)[C@@H](O)[C@H](O)[C@H]1O` — result for “mRNA fold change”: 9.53 fold (HepG2; refers to: P53; IC50, 48 h; baseline: untreated).
For `C#CCCCNCCNc1ccnc2cc(Cl)ccc12`, the inhibition was 8.1% (HL-60; cell growth or viability, resazurin; 10 µM, 48 h).
For `C[C@@H]1CCC2[C@@H](C)[C@@H](OCCC[P+](c3ccccc3)(c3ccccc3)c3ccccc3)O[C@@H]3O[C@@]4(C)CCC1[C@@]23OO4` (stereo partly drawn), the selectivity index was 1.67 (T24; MTT; 72 h; baseline: HUVEC IC50 over T24 IC50).
For `CCCCN(CCCC)CC(O)COc1c2ccoc2c(OC)c2oc(CC)cc(=O)c12` (stereo not drawn), the selectivity index was 2.48 (HTB-140; MTT; baseline: IC50 HaCaT over IC50 HTB-140).
`CCc1ccc(C(=O)N[C@@H](CO)C(=O)N[C@H](C(=O)N2CCC[C@H]2C(=O)N[C@@H](CC(N)=O)C(=O)NCC(=O)N[C@@H](CC(C)C)C(=O)O)[C@@H](C)OP(=O)(O)O)cc1`: “aberrant prometaphase/metaphase cells” 48% (HeLa-H2B-GFP, QQ transfected; 30 µM).
